Published values collected from several papers.
Each numbered part is a random draw from the data of one study; scales do not carry over between parts.

Study 1 — cell line: HEK-293T/ACE2; concentration: concentration not given; time: 16 (unit not given); baseline: vehicle; quantity: viability
CC(=O)OCC(=O)[C@@]12OC(C)(C)O[C@@H]1C[C@H]1[C@@H]3C[C@H](F)C4=CC(=O)C=C[C@]4(C)[C@@]3(F)[C@@H](O)C[C@@]12C: 103%
CC(=O)/N=c1/sc(S(N)(=O)=O)nn1C: 99.6%
CCCCCCCCCCCCCCCCOP(=O)([O-])OCC[N+](C)(C)C: 106%
CCN(CC)CCCC(C)Nc1ccnc2cc(Cl)ccc12 (centres unmarked): 108%
CCN(CC)C(=O)[C@@]1(c2ccccc2)C[C@H]1CN: 104%

Study 2 — read-out: enzyme activity; mode: inhibitor; concentration: 20 µM; quantity: inhibition
Target: Replicase polyprotein 1ab, polymerase (rep, Severe acute respiratory syndrome coronavirus 2, UniProt P0DTD1)
COc1cc(OC)c2c(=O)[nH]c(-c3cc(C)c(OCCO)c(C)c3)nc2c1: 0.41%
Fc1ccc2c(CCNCc3cccc(OCC(F)(F)C(F)F)c3)c[nH]c2c1: 1.09%
NCCc1c[nH]c2ccc(O)cc12: -2.55%
O=c1cc(-c2cccc3c2Sc2ccccc2S3)oc(N2CCOCC2)c1: 3.51%
Cc1cc(C)cc(NC(=O)Cc2ccc(OC(C)(C)C(=O)O)cc2)c1: -2.18%
NC(=O)CN1Cc2ccccc2OC1=O: -4.86%
NC1=N[C@@](c2cccc(-c3cncnc3)c2)(c2ccnc(C(F)F)c2)c2cccc(F)c21: -0.7%
CC#CC(=O)N1CCC[C@H]1c1nc(-c2ccc(C(=O)Nc3ccccn3)cc2)c2c(N)nccn12: 0.86%
CCn1c(-c2nonc2N)nc2cncc(CNC3CCNCC3)c21: -8%
O=C1CC[C@@](c2ccccc2)(C2CCN(Cc3ccc(I)cc3)CC2)C(=O)N1: 0.25%
FC(F)(F)c1cccc(C2=CCN(CCc3ccc4ccccc4c3)CC2)c1: -3.32%
Cn1ncc2c(N3CCOCC3)nc(-c3cccc(O)c3)nc21: 9.41%
CC(C)(C)c1cc(C(=O)/C=C/c2ccc(C(=O)O)cc2)cc(C(C)(C)C)c1: 5.95%
CSc1ccc(C(=O)N[C@@H]2CCCC[C@@H]2NC(=O)CNC(=O)c2cc(C(F)(F)F)ccc2NC(=O)NC(C)C)cc1: -2.68%
C=CCNC1=C2C[C@@H](C)C[C@H](OC)[C@H](O)[C@@H](C)/C=C(\C)[C@H](OC(N)=O)[C@@H](OC)/C=C\C=C(/C)C(=O)NC(=CC1=O)C2=O: 5.06%
CCOP(=S)(OCC)Oc1nc(Cl)c(Cl)cc1Cl: 1.83%
O=C(c1ccc(Cl)o1)N1C[C@H]2CNC[C@H]2C1: -1.88%
O=c1[nH]c(=O)c2ccccc2o1: -8.67%
C/C(=N\N=C(N)N)c1cc(NC(=O)CCCCCCCCC(=O)Nc2cc(/C(C)=N/N=C(N)N)cc(/C(C)=N/N=C(N)N)c2)cc(/C(C)=N/N=C(N)N)c1: 94.5%
N=C(N)NC(=N)N1CCOCC1: 0.88%
C[N@+]12CCCC[C@@H]1CCC(=C(c1cccs1)c1cccs1)C2 (racemic): -2.71%
CCN(CC)CCNC(=O)c1ccccc1I: -0.84%
O=c1cc(-c2ccccc2)oc2cc(O)c(O)c(O)c12: 71.7%
CC(C)n1nc(-c2ccc3oc(N)nc3c2)c2c(N)ncnc21: -5.07%
CC(C(=O)O)c1cccc(C(=O)c2ccccc2)c1 (centres unmarked): 20.3%

Study 3 — technique: protein-binding microarray; molecule type: double-stranded DNA, one strand shown; sample: in vitro; concentration: 2200 nM top; setting: 60-bp whole probe; with: salmon DNA 0.4 mg/ml; baseline: random background probes; direction: higher = stronger binding; quantity: fitted relative affinity; all sequences stand within: GCCTAGCAC … GTCTTGATTCGCTTGACGCTGCTG
Target: Interferon regulatory factor 7, full length, phosphomimetic (IRF7, Homo sapiens, UniProt Q92985, residues 1-503, S471D/S472D/S475D/S476D/S477D/S483D/S484D/S487D)
Chain of UniProt Q92985 (whole entry, unmodified, looked up): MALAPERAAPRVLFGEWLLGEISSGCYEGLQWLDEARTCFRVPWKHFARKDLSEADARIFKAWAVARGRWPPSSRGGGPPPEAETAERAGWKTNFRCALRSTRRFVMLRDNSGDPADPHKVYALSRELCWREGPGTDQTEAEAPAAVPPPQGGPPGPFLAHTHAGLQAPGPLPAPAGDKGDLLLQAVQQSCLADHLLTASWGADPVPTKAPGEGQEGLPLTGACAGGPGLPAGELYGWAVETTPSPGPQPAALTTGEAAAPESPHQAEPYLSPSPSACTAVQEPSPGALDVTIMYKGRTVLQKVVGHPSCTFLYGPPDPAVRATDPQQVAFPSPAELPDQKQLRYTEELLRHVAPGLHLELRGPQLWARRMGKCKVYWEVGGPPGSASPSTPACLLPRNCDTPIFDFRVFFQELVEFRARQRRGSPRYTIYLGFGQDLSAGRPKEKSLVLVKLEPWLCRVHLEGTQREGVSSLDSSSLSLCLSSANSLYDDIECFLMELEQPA
TTATGACTGGACTTTCGGTTAGTGCTA: 5.57 z-score
GACGGTCTCCTACTGGTGACGTGCTAG: 0.0604 z-score
TCATTATTTACTCTCTAACTGTGCTAG: 1.29 z-score
TTAGGATTCGACACTGGGTTAGTGCTA: 0.0338 z-score
TCACCTTTGCCTCTGAGACTGTGCTAG: 1.58 z-score
TCAGCTTTCTTTATGCAACTGTGCTAG: 1.7 z-score
GGCGGTATCGGGTTTCGGGACGTGCTA: 1.05 z-score
GACGGTCTCCTATTGCTGACGTGCTAG: 0.817 z-score

Study 4 — technique: universal PBM; molecule type: double-stranded DNA, one strand shown; sample: in vitro; concentration: not given; direction: higher = stronger binding; quantity: E-score
Target: Sal-like protein 4, full length isoform B (SALL4, Homo sapiens, UniProt Q9UJQ4-2, residues 1-616)
Setting: 8-mer, flanks averaged, mean of replicates
GCATGGAC: -0.226
GATCTAGC: -0.181
TTCCGCAA: 0.00577
GAGCGTTA: -0.037
ATCTTCTA: 0.0761
ATTCGCAG: 0.0763
AGTGGTAT: 0.0935
AAATAAGT: 0.264

Study 5 — read-out: enzyme activity; mode: inhibitor; concentration: 20 µM; setting: primary screen; quantity: inhibition
Target: Replicase polyprotein 1ab, main protease (rep, Severe acute respiratory syndrome coronavirus 2, UniProt P0DTD1)
O=C(O)c1ccc(N2C(=O)/C(=C/c3ccc(-c4ccc([N+](=O)[O-])cc4)o3)C=C2c2ccccc2)cc1: 61.1%
c1ccc2sc(SSc3nc4ccccc4s3)nc2c1: 83.5%
CCN(CC)S(=O)(=O)c1cccc(-n2sc3ccccc3c2=O)c1: 100%
O=c1cc(-c2ccc(O)cc2)oc2cc(O)cc(O)c12: 94.5%
